Experimental data pooled from the literature.
Protocols differ between the studies behind these lines. “And” joins repeats or separate records; there may be more than shown. ± marks the error that the study gave.

| Substance | organism | test | system | setting | how to read | quantity | result |
| --- | --- | --- | --- | --- | --- | --- | --- |
| Cc1cc(C)cc(S(=O)(=O)c2c(C(=O)NC3CC4(C3)CN(Cc3n[nH]c(=O)[nH]3)C4)[nH]c3ccc(Cl)cc23)c1 | HIV-1 | viral replication | MT-4, E138K mutant |  |  | EC50 | 40 ± 20 nM |
| [O-][N+]1=C(c2ccc(Cl)cc2)C2=NCCCCN2c2ccccc21 | Bacteroides thetaiotaomicron | microbial growth | ATCC29148 |  |  | MIC | 1 µg/mL |
| CCCOC(=O)N1c2cc(CNC)ccc2[C@H](NC(=O)C(=O)Nc2ccc(Cl)c(F)c2)[C@H]1CNC(=N)N | HIV-1 AD8 Env E64G/S375N | viral infection |  |  |  | IC50 | 60000 nM and < 75000 nM |
| [O-][N+]1=C(c2ccccc2)C2=NCCN2c2ccccc21 | Bacteroides thetaiotaomicron | microbial growth | ATCC29148 |  |  | MIC | ≤ 0.06 µg/mL |
| CC(C)CC(C)N1CCn2cc(C(=O)NCc3ccc(F)cc3F)c(=O)c(O)c2C1=O (stereo not shown) | human immunodeficiency virus 1 | single-round vector infection | integrase N155H |  |  | EC50 | 10 ± 0.7 nM |
| CC[C@H](C)[C@H](NC(=O)[C@H](CCCCN)NC(=O)[C@H](Cc1ccc(O)cc1)NC(=O)[C@H](CCC(N)=O)NC(=O)[C@H](Cc1c[nH]cn1)NC(=O)[C@@H](NC(=O)[C@H](Cc1ccccc1)NC(=O)[C@H](Cc1c[nH]cn1)NC(=O)[C@@H](NC(=O)[C@@H](NC(=O)CNC(=O)[C@H](CCCNC(=N)N)NC(=O)[C@H](Cc1c[nH]c2ccccc12)NC(=O)[C@H](CC(C)C)NC(=O)[C@H](CO)NC(=O)[C@H](CCC(=O)O)NC(=O)[C@H](CC(C)C)NC(=O)[C@H](CCC(=O)O)NC(=O)[C@H](CC(N)=O)NC(=O)[C@H](CC(C)C)NC(=O)[C@H](CC(=O)O)NC(=O)[C@H](CO)NC(=O)[C@H](CCC(=O)O)NC(=O)[C@@H](NC(=O)[C@H](CC(C)C)NC(=O)[C@H](CCC(N)=O)NC(=O)[C@H](CCC(=O)O)NC(=O)[C@H](CCC(=O)O)NC(=O)[C@H](CC(C)C)NC(=O)[C@@H]1CCCN1C(=O)[C@@H](N)Cc1ccccc1)[C@@H](C)O)[C@@H](C)O)[C@@H](C)O)C(C)C)C(=O)N[C@@H](CCSC)C(=O)N1CCC[C@H]1C(=O)N[C@@H](Cc1ccccc1)C(=O)N[C@@H](CCCNC(=N)N)C(=O)N[C@@H](CCCCN)C(=O)N[C@@H](CC(C)C)C(=O)N[C@H](C(=O)N[C@@H](Cc1ccccc1)C(=O)N[C@@H](CCCCN)C(=O)N[C@@H](CCCNC(=N)N)C(=O)N[C@@H](CCCNC(=N)N)C(=O)N[C@@H](CCCCN)C(=O)N[C@@H](CC(N)=O)C(N)=O)C(C)C | Candida albicans | ATP luminescence | FH2173 | 48 h |  | MIC | > 50 µM |
| ivermectin | human adenovirus C5 | reporter gene | A549 | 10 µM, 72 h, together with: digitoxin | relative to: DMSO control | viral replication | 63.3 ± 9.55% |
| [O-][N+]1=C(c2ccc(Cl)cc2)C2=NCCCN2c2ccccc21 | Bacteroides thetaiotaomicron | microbial growth | ATCC29148 |  |  | MIC | 1 µg/mL |
| Cc1cc(/C=C/C#N)cc(C)c1Nc1nc(Nc2ccc(C#N)cc2)ncc1N | HIV-1 | viral replication, single-round infection | RT mutant M184V |  |  | EC50 | 0.4 ± 0.04 nM |
| O=C(NCc1ccc(F)cc1F)c1cn2c(c(O)c1=O)C(=O)N(CCCCO)CC2 | human immunodeficiency virus 1 | single-round vector infection | integrase R263K |  |  | EC50 | 110 ± 17.3 nM |
| CCCCCCCCCCCCCCC[C@@H](O)[C@H](CO)NC(=O)NCCCC[C@H](NC(=O)[C@H](CC(C)C)NC(=O)[C@@H](NC(=O)[C@H](CCCNC(=N)N)NC(=O)[C@H](C)NC(=O)[C@H](CCC(N)=O)NC(=O)[C@H](CC(C)C)NC(=O)[C@H](CCC(N)=O)NC(=O)[C@H](CCCCN)NC(=O)[C@@H](NC(=O)CNC(=O)[C@H](Cc1c[nH]c2ccccc12)NC(=O)[C@@H](NC(=O)[C@@H](NC(=O)[C@H](CC(C)C)NC(=O)[C@H](CCC(N)=O)NC(=O)[C@H](CC(C)C)NC(=O)[C@@H](N)CC(C)C)[C@@H](C)O)C(C)C)[C@@H](C)CC)[C@@H](C)CC)C(N)=O | HIV-1 HXB2 | viral infectivity, luciferase reporter | TZM-bl |  |  | IC50 | 287 ± 143 nM |
| CC(C)n1ccn2cc(C(=O)NCc3ccc(F)cc3F)c(=O)c(O)c2c1=O | human immunodeficiency virus 1 | single-round vector infection | integrase G140S/Q148H |  |  | EC50 | 32.6 ± 7.5 nM |
| Cc1cc(C#N)cc(C)c1Oc1nc(NC2CCN(Cc3ccc(C(N)=O)cc3)CC2)nc2ccccc12 | HIV-1 GH9 | viral replication | TZM-bl, K101P/K103N/V108I |  |  | EC50 | 145 ± 31 nM |
| CC(C)N1CCn2cc(C(=O)NCc3ccc(F)cc3F)c(=O)c(O)c2C1=O | human immunodeficiency virus 1 | single-round vector infection | integrase R263K |  |  | EC50 | 5.2 ± 0.8 nM |
| Cc1cc(/C=C/C#N)cc(C)c1-n1cnc2cnc(Nc3ccc(C#N)cc3)nc21 | HIV-1 | viral replication, single-round infection | RT mutant E138K/M184V |  |  | EC50 | 1.8 ± 0.8 nM |
| O=[N+]([O-])c1ccc(C2=[N+]([O-])c3ccccc3N3CCCN=C23)cc1 | Bacteroides thetaiotaomicron | microbial growth | ATCC29148 |  |  | MIC | 0.125 µg/mL |
| Cc1nc([C@H](NC(=O)c2ccc(-c3ccc(Cl)cc3)[nH]2)[C@H]2CCCCN2)sc1CO | HIV-1 | viral replication | MT-2, IIIB |  |  | IC50 | 800 nM and ≥ 800 nM |
| CC(C)CC(C)n1ccn2cc(C(=O)NCc3ccc(F)cc3F)c(=O)c(O)c2c1=O (stereo not shown) | human immunodeficiency virus 1 | single-round vector infection | integrase R263K |  |  | EC50 | 6.8 ± 0.4 nM |
| [O-][N+]1=C(Cc2ccccc2)C2=NCCCN2c2ccccc21 | Bacteroides thetaiotaomicron | microbial growth | ATCC29148 |  |  | MIC | 2 µg/mL |
| COCCCCCCN1CCn2cc(C(=O)NCc3ccc(F)cc3F)c(=O)c(O)c2C1=O | human immunodeficiency virus 1 | single-round vector infection | integrase S230N |  |  | EC50 | 8.8 ± 0.9 nM |
| CNCc1ccc2c(c1)N(C(=O)OCc1c(F)c(F)c(F)c(F)c1F)[C@H](CNC(=N)N)[C@H]2NC(=O)C(=O)Nc1ccc(Cl)c(F)c1 | HIV-1 AD8 Env E64G/I424T | viral infection |  |  |  | IC50 | 40000 nM and < 75000 nM |
| O=C(NCc1ccc(F)cc1F)c1cn2c(c(O)c1=O)C(=O)N(CCCCCCO)CC2 | human immunodeficiency virus 1 | single-round vector infection | integrase G140S/Q148H |  |  | EC50 | 300 ± 9.5 nM |
| COc1ccc2c(c1)OCCCC=CCCCCN(CC(O)C(Cc1ccccc1)NC(=O)OC1COC3OCCC13)S2(=O)=O (mixture of isomers) | HIV-1 | viral replication | PHA-stimulated PBMCs, HIV-1MDR/B X4 multidrug-resistant |  |  | IC50 | 89 ± 16 nM |
| COCCN1CCn2cc(C(=O)NCc3ccc(F)cc3F)c(=O)c(O)c2C1=O | human immunodeficiency virus 1 | single-round vector infection | integrase G140S/Q148H |  |  | EC50 | 431 ± 36.7 nM |
| CNCc1ccc2c(c1)N(C(=O)OCc1ccccc1)[C@H](CNC(=N)N)[C@H]2NC(=O)C(=O)Nc1ccc(Cl)c(F)c1 | HIV-1 AD8 Env E64G/S375N | viral infection |  |  |  | IC50 | < 75000 nM and 40000 nM |

For quick reference, copied from above:
| Substance | organism | test | system | setting | how to read | quantity | result |
| --- | --- | --- | --- | --- | --- | --- | --- |
| COCCN1CCn2cc(C(=O)NCc3ccc(F)cc3F)c(=O)c(O)c2C1=O | human immunodeficiency virus 1 | single-round vector infection | integrase G140S/Q148H |  |  | EC50 | 431 ± 36.7 nM |
| CNCc1ccc2c(c1)N(C(=O)OCc1ccccc1)[C@H](CNC(=N)N)[C@H]2NC(=O)C(=O)Nc1ccc(Cl)c(F)c1 | HIV-1 AD8 Env E64G/S375N | viral infection |  |  |  | IC50 | < 75000 nM and 40000 nM |
